Published values collected from several papers.
Lines come from different studies, so protocols differ. ± marks the error that the study gave.
OPRK1: Kappa-type opioid receptor (OPRK1, Homo sapiens, UniProt P41145)
cyp121: Mycocyclosin synthase (cyp121, Mycobacterium tuberculosis, UniProt P9WPP7)
Slc6a3: Sodium-dependent dopamine transporter (Slc6a3, Rattus norvegicus, UniProt P23977)
OPRM1 with beta-arrestin-2: Mu-type opioid receptor, with beta-arrestin-2 (OPRM1, Homo sapiens, UniProt P35372)

Protein sequences, listed by entry. Tags and fused reporters are not part of them. Lines headed by an entry give the natural chain unless they say otherwise; changes in a name come on top. Residues count along the entry.
UniProt P41145, whole entry: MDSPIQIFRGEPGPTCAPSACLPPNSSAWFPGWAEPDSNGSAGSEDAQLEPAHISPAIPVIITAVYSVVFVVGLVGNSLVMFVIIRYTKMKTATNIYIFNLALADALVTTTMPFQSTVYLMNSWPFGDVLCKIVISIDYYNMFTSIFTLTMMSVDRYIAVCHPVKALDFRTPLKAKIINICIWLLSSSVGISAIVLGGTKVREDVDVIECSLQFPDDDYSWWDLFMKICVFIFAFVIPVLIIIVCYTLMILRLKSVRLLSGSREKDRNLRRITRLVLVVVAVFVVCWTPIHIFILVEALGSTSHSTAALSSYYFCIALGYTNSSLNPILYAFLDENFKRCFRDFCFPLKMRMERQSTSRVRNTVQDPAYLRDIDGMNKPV
UniProt P9WPP7, whole entry: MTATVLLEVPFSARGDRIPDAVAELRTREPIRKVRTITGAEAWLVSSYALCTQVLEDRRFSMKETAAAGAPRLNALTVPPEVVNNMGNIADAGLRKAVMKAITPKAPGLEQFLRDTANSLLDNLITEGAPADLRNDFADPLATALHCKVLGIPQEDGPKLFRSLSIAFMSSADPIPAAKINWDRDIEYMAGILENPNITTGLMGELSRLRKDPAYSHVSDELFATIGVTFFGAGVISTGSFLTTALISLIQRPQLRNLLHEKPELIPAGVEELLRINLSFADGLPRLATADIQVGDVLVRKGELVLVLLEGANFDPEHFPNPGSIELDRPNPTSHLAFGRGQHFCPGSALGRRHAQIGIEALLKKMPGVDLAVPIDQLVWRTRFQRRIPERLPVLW
UniProt P23977, whole entry: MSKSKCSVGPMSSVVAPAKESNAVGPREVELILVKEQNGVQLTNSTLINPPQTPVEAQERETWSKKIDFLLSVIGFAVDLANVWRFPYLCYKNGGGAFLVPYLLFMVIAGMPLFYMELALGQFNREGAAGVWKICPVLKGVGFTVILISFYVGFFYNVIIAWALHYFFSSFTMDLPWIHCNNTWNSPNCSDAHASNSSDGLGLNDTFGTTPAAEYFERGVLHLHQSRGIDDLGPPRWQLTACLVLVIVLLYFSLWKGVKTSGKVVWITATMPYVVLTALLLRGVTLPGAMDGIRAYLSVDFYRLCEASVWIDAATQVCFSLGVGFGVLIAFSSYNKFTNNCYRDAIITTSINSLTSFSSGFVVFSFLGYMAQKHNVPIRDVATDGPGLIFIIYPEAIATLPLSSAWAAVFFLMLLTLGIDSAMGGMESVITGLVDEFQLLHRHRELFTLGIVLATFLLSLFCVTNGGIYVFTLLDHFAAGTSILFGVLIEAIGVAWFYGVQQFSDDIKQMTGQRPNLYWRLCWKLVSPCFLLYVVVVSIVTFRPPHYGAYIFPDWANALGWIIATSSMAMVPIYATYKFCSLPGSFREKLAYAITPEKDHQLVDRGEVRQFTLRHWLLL
UniProt P35372, whole entry, looked up: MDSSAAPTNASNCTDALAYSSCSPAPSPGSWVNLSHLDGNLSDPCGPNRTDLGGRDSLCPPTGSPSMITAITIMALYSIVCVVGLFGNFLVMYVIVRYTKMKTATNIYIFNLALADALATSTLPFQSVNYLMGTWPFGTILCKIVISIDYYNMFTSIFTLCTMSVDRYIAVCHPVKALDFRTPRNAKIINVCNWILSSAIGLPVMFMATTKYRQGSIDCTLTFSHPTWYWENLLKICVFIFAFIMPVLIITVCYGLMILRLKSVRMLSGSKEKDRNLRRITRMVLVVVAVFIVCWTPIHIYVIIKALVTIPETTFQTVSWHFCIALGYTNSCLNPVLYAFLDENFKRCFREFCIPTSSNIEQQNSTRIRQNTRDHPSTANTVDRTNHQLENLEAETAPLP
UniProt P21917, whole entry: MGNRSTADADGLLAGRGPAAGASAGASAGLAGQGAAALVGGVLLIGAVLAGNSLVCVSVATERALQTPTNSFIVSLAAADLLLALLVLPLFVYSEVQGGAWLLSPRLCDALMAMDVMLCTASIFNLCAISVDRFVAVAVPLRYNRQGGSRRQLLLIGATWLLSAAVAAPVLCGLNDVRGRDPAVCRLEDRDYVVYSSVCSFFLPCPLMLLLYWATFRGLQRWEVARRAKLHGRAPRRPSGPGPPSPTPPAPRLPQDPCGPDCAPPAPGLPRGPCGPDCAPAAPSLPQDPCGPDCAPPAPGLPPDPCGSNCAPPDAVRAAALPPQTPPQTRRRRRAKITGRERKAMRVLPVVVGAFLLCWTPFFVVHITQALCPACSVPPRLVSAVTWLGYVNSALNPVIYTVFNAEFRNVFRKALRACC
UniProt P41143, whole entry: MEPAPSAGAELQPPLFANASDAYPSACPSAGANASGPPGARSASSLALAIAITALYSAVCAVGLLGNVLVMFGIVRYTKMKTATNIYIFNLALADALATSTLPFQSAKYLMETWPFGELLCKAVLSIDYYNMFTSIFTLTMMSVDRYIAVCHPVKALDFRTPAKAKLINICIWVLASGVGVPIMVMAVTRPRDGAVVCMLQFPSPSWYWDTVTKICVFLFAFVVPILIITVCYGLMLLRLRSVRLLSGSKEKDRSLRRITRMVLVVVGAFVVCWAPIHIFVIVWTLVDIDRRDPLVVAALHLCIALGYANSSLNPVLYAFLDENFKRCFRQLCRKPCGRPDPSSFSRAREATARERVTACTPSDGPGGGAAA
UniProt P07948, whole entry Y508F, looked up: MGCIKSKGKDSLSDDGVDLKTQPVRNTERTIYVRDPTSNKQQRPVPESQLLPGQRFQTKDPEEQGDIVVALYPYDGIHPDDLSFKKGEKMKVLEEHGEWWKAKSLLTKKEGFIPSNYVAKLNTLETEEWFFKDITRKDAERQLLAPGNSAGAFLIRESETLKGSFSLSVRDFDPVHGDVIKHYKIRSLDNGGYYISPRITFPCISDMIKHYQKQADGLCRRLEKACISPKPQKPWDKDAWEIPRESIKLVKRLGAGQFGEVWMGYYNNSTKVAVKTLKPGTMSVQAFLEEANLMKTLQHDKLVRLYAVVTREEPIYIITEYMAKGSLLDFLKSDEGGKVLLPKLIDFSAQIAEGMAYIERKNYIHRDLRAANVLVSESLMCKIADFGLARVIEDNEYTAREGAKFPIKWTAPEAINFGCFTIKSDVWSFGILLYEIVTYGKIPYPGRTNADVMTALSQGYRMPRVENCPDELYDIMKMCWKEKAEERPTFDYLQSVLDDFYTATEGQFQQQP
UniProt O07899, whole entry: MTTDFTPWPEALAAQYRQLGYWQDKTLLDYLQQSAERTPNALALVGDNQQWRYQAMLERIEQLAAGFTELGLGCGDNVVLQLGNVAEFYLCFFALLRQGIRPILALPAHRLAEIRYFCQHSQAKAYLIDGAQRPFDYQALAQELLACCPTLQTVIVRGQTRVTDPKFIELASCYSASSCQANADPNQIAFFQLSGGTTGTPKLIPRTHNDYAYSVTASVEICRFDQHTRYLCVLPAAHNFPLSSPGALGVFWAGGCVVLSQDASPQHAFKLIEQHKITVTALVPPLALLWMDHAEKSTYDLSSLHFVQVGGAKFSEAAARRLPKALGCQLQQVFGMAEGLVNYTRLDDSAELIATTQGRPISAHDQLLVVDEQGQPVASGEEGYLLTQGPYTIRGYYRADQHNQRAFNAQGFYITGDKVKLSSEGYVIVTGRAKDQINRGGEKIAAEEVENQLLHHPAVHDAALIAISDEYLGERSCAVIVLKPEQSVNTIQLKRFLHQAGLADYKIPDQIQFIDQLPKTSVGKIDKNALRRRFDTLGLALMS
UniProt Q9T034, whole entry: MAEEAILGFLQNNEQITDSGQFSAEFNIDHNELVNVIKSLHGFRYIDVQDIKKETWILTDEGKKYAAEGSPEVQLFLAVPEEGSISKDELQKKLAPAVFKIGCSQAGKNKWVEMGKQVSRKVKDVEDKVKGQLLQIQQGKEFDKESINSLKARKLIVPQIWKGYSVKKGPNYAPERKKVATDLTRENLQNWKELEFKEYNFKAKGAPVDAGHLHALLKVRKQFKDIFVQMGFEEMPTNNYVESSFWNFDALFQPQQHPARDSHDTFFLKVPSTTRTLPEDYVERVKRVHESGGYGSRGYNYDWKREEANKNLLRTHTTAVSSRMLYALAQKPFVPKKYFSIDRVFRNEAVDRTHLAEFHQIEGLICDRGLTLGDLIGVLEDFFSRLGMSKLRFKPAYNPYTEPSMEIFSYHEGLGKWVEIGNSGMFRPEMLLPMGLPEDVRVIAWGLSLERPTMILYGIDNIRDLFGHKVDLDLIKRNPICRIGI
UniProt P06241, whole entry, looked up: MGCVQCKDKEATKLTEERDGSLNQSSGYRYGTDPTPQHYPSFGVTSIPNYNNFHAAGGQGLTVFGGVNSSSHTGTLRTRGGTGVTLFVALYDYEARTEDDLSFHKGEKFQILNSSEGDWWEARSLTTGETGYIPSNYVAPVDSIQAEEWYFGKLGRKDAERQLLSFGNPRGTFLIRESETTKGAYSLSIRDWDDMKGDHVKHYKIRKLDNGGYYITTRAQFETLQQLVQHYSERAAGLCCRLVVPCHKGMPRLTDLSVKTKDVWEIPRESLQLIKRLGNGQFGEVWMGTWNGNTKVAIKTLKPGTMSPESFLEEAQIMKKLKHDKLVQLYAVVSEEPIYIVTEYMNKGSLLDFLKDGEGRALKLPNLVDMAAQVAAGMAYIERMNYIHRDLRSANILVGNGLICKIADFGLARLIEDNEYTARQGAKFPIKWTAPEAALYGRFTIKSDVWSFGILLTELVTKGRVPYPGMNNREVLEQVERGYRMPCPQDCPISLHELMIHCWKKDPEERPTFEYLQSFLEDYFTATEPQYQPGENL
UniProt P9WGR1, whole entry: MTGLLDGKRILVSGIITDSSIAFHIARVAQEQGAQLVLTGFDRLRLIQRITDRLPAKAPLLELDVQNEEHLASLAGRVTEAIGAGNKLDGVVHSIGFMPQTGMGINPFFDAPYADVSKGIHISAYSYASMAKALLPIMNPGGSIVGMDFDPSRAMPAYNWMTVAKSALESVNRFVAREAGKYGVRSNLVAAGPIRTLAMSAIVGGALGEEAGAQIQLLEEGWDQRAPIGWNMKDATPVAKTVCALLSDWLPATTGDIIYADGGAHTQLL
UniProt P14867, 28-456 L291T limits assumed: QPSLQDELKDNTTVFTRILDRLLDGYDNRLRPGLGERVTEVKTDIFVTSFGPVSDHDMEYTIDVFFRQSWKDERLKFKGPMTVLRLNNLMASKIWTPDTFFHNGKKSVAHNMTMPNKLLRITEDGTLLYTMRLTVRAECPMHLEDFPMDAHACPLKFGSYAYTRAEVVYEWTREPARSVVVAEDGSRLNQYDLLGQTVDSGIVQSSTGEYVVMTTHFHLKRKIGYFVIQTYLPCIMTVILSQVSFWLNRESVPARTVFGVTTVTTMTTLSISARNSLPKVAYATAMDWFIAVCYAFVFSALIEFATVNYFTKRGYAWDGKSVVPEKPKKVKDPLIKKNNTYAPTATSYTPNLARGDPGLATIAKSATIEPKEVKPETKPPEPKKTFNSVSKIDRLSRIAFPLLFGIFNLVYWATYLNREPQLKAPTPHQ
UniProt P28472, 26-473 limits assumed, stated change not applied: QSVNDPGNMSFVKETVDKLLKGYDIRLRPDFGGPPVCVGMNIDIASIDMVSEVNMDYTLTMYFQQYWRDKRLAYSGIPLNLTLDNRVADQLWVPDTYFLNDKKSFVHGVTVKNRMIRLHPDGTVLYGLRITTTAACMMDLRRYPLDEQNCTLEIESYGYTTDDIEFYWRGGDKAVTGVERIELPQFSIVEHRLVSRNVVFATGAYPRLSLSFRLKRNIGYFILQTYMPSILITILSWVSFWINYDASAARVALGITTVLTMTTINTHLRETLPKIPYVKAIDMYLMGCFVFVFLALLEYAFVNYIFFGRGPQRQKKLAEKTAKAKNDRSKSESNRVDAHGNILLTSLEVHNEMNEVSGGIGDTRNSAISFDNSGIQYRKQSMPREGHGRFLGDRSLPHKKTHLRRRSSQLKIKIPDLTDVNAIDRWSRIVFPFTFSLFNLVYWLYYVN
UniProt P18507, 40-475 partner limits assumed: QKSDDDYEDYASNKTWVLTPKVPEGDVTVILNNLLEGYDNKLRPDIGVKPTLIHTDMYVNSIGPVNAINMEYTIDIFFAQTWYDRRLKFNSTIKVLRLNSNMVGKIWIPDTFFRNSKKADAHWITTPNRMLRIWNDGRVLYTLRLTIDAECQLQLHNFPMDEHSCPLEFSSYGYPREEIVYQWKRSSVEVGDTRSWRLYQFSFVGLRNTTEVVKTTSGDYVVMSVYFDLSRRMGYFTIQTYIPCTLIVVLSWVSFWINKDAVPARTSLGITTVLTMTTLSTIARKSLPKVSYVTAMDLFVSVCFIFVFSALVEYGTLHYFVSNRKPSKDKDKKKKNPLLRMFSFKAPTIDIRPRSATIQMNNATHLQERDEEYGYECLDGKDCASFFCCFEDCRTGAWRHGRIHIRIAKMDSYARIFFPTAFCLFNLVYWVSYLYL

Compound = CC(CCN[C@H](CN[C@H](CO)CN1CCC[C@H]1CN[C@H](CN)c1ccccc1)c1ccccc1)c1ccccc1 (stereo partly shown); tested on = Escherichia coli; assay = bacterial growth; setting = compound alone; measurement = IC50; result = > 24 µM
Compound = COc1ccc(CN[C@@H]2CO[C@H](C(c3ccccc3)c3ccccc3)C[C@H]2O)cc1; tested on = DRD4 (Homo sapiens, UniProt P21917); assay = radioligand binding; setting = 10 µM, with: [3H]N-methylspiperone; measurement = inhibition; result = 3.1%
Compound = COC(=O)[C@@H]1C=C(OC(=O)c2ccc(O)cc2)C(=O)[C@H]2[C@@]1(C)CC[C@H]1C(=O)O[C@H](c3ccoc3)C[C@]21C; tested on = OPRK1; assay = forskolin-induced cAMP inhibition, agonist; system = CHO-K1 expressing human KOR; measurement = EC50; result = > 10 µM
Compound = CN1CC[C@]23c4c5ccc(O)c4O[C@H]2c2ncc(-c4ccc(Cl)cc4)cc2C[C@@]3(OCCCc2ccccc2)[C@H]1C5; tested on = OPRD1 (Homo sapiens, UniProt P41143); assay = agonist; system = CHO membranes; measurement = EC50; result = 0.0013 ± 0.0001 µM
Compound = [11CH3]Nc1ccc(C(=O)C2CCN(C3Cc4ccccc4CC3O)CC2)cc1 (single isomer, unassigned); system = Sprague-Dawley rat, brain; setting = intravenous, dose not given, 5 min; measurement = radioactivity uptake; result = 0.57 %ID/g
Compound = CC(=O)NC1C(OC2C(CO)OC(OC3C(CO)OC(O)C(O)C3O)C(O)C2O)OC(CO)C(O)C1OC1OC(CO)C(O)C(O)C1O (stereo not shown); tested on = hly, domain 4 (Listeria monocytogenes, UniProt P13128); assay = binding; measurement = Kd; result = 0.462 µM
Compound = CCC(c1ccc(-c2ccc(O)cc2)cc1)n1ccnc1 (stereo not shown); tested on = cyp121; assay = binding; measurement = Kd; result = 1.8 ± 0.32 µM
Compound = CCNC(C)Cc1ccc2c(c1)OCO2 (stereo not shown); tested on = Slc6a3; assay = dopamine release, releaser; system = rat brain synaptosomes; measurement = EC50; result = 0.622 ± 0.121 µM
Compound = Nc1ncnc2c1c(-c1cnc3[nH]ccc3c1)nn2C1CCCC1; tested on = LYN (Homo sapiens, UniProt P07948, Y508F); assay = inhibitor; measurement = Ki; result = 0.035 µM
Compound = O=C(NS(=O)(=O)OC[C@H]1O[C@@H](n2cnc3c(NCc4ccccc4)ncnc32)[C@H](O)[C@@H]1O)c1ccccc1O; tested on = Vibriobactin-specific 2,3-dihydroxybenzoate-AMP ligase (vibE, Vibrio cholerae serotype O1, UniProt O07899); assay = binding; system = Vibrio cholerae; measurement = Kd; result = 0.00883 ± 0.00129 µM
Compound = Fc1ccc(-c2ccc(Cn3ccnc3)s2)cc1; tested on = cyp121; assay = binding; measurement = Kd; result = 9.1 ± 1.5 µM
Compound = NC[C@@H](NC[C@@H]1CCCN1C[C@@H](CO)NC[C@@H](NCCC1CC2CCC1C2)c1ccccc1)c1ccccc1 (stereo partly shown); tested on = Acinetobacter baumannii; assay = bacterial growth; setting = compound alone; measurement = IC90; result = > 24 µM
Compound = COC(=O)[C@@H]1C=C(OC(=O)c2ccc3occc3c2)C(=O)[C@H]2[C@@]1(C)CC[C@H]1C(=O)O[C@H](c3ccoc3)C[C@]21C; tested on = OPRK1; assay = forskolin-induced cAMP inhibition, agonist; system = CHO-K1 expressing human KOR; measurement = EC50; result = > 10 µM
Compound = C1=C(CCNCc2ccccc2)CCCC1; tested on = Phenylalanine--tRNA ligase alpha subunit, cytoplasmic (Arabidopsis thaliana, UniProt Q9T034); assay = phenylalanine activation, inhibitor; measurement = IC50; result = > 300 µg/mL
Compound = c1ccc(-c2csc(Cn3ccnc3)c2)cc1; tested on = cyp121; assay = binding; measurement = Kd; result = 28.3 ± 3.7 µM
Compound = COC(=O)[C@@H]1C=C(OC(=O)c2ccc(O)c(F)c2)C(=O)[C@H]2[C@@]1(C)CC[C@H]1C(=O)O[C@H](c3ccoc3)C[C@]21C; tested on = OPRM1 with beta-arrestin-2; assay = β-arrestin-2 recruitment, agonist, PathHunter; system = CHO-K1; measurement = EC50; result = 0.024 ± 0.003 µM
Compound = CC(C)n1nc(-c2ccc3cc(OCc4cccc(Cl)c4)ccc3c2)c2c(N)ncnc21; tested on = FYN (Homo sapiens, UniProt P06241, G531I/P530I/Q529E); assay = inhibitor; measurement = Ki; result = 0.22 µM
Compound = COC(=O)[C@@H]1C=C(OC(=O)c2cccc(O)c2)C(=O)[C@H]2[C@@]1(C)CC[C@H]1C(=O)O[C@H](c3ccoc3)C[C@]21C; tested on = OPRK1; assay = forskolin-induced cAMP inhibition, agonist; system = CHO-K1 expressing human KOR; measurement = EC50; result = > 10 µM
Compound = CCc1ccc(CCN)cc1; tested on = Slc6a3; assay = dopamine release, releaser; system = rat brain synaptosomes; measurement = EC50; result = 2.09 ± 0.195 µM
Compound = CCC(c1ccc(-c2ccc3[nH]ccc3c2)cc1)n1ccnc1 (stereo not shown); tested on = cyp121; assay = binding; measurement = Kd; result = 2.9 ± 1.2 µM
Compound = O=C(NC1CCN(c2ncnc3[nH]cnc23)CC1)c1cccc(S(=O)(=O)Nc2ccc(Cl)cc2)c1; tested on = A549-ACE2; setting = 0.2743 µM; measurement = viability; result = 108%
Compound = COC(=O)[C@@H]1C=C(OC(=O)c2ccc(O)c(Br)c2)C(=O)[C@H]2[C@@]1(C)CC[C@H]1C(=O)O[C@H](c3ccoc3)C[C@]21C; tested on = OPRM1 with beta-arrestin-2; assay = β-arrestin-2 recruitment, agonist, PathHunter; system = CHO-K1; measurement = EC50; result = 1.6 ± 0.3 µM
Compound = CC(C)n1nc(-c2ccc3c(c2)OCO3)c2c(N)ncnc21; tested on = FYN (Homo sapiens, UniProt P06241, S254P/T250P/T253P); assay = inhibitor; measurement = Ki; result = 0.19 µM
Compound = C[C@H](CS)C(=O)N[C@H](Cc1c[nH]c2ccccc12)C(=O)O; tested on = Enterobacter aerogenes; system = IMP-1 producing; setting = 25 µM, with: meropenem; measurement = MIC of meropenem; result = 0.5 µg/mL
Compound = O=c1ccn([C@@H]2O[C@H](COP(=O)(O)OP(=O)(O)OP(=O)(O)O)[C@@H](O)[C@]2(F)Br)c(=O)[nH]1; tested on = Genome polyprotein, NS5B polymerase (Hepatitis C virus genotype 2a, UniProt Q99IB8); assay = polymerase activity, inhibitor; system = Hepatitis C virus, genotype 2a; measurement = IC50; result = 1.2 µM
Compound = NCCNCCSc1ccccc1; system = mouse blood; setting = 100 µg/mL, 30 min, 37 °C; measurement = blood-to-plasma ratio; result = 1.52 ± 0.09
Compound = CC(C)n1nc(-c2ccc3cc(OCc4ccccc4)ccc3c2)c2c(N)ncnc21; tested on = FYN (Homo sapiens, UniProt P06241, G534I/P533E/Q532E); assay = inhibitor; measurement = Ki; result = 0.12 µM
Compound = CC(=O)NC1C(O)CC(OC(CO)C(O)C2OC(OC(CO)C(O)C3OC(OC4C(O)C(OC5C(CO)OC(O)C(O)C5O)OC(CO)C4OC4OC(CO)C(O)C(OC5OC(CO)C(O)C(O)C5O)C4NC(C)=O)(C(=O)O)CC(O)C3NC(C)=O)(C(=O)O)CC(O)C2NC(C)=O)(C(=O)O)OC1C(O)C(O)CO (stereo not shown); tested on = hly (Listeria monocytogenes, UniProt P13128); assay = binding; setting = pH 5.5; measurement = Kd; result = 0.0023 µM
Compound = O=C(NC1CCN(c2ncnc3[nH]cnc23)CC1)c1cccc(NS(=O)(=O)c2ccc(Cl)cc2)c1; tested on = A549-ACE2; setting = 66.67 µM; measurement = viability; result = 85.1%
Compound = CCC(c1ccc(-c2ccc(O)cc2)cc1F)n1ccnc1 (stereo not shown); tested on = cyp121; assay = binding; measurement = Kd; result = 3.8 ± 0.85 µM
Compound = Oc1cc(Cn2cc(C3CC3)nn2)ccc1Oc1ccccc1Cl; tested on = inhA (Mycobacterium tuberculosis, UniProt P9WGR1); assay = enzyme activity, slow-onset inhibitor; setting = 20 °C, final EI* complex; measurement = Ki; result = 0.068 ± 0.009 µM
Compound = CCC(c1ccc(-c2ccc(O)c(C)c2)cc1)n1ccnc1 (stereo not shown); tested on = cyp121; assay = binding; measurement = Kd; result = 6.5 ± 2.7 µM
Compound = COCc1ccc(C(=O)OC2=C[C@@H](C(=O)OC)[C@]3(C)CC[C@H]4C(=O)O[C@H](c5ccoc5)C[C@]4(C)[C@H]3C2=O)cc1; tested on = OPRK1; assay = forskolin-induced cAMP inhibition, agonist; system = CHO-K1 expressing human KOR; measurement = EC50; result = > 10 µM
Compound = CCC(c1ccc(-c2cscc2C)cc1F)n1ccnc1 (stereo not shown); tested on = cyp121; assay = binding; measurement = Kd; result = 9 ± 1.3 µM
Compound = COC(=O)[C@@H]1C=C(OC(=O)c2ccc(CO)cc2)C(=O)[C@H]2[C@@]1(C)CC[C@H]1C(=O)O[C@H](c3ccoc3)C[C@]21C; tested on = OPRK1; assay = forskolin-induced cAMP inhibition, agonist; system = CHO-K1 expressing human KOR; measurement = EC50; result = > 10 µM
Compound = CCOC(=O)c1cncn1[C@@H](C)c1c(F)c(F)c(F)c(F)c1F; tested on = GABA-A receptor alpha-1/beta-3, with gamma-2 subunit (GABRA1/GABRB3, Homo sapiens, UniProt P14867+P28472, L291T); assay = ion current, agonist, two-electrode voltage clamp; system = Xenopus laevis oocytes; how to read = baseline: 100 µM GABA; measurement = EC50; result = 166 ± 25 µM
Compound = CC(c1ccc2c(c1)Cc1ccccc1-2)n1ccnc1 (stereo not shown); tested on = cyp121; assay = binding; measurement = Kd; result = 4.8 ± 0.78 µM
